Published values gathered from unrelated publications.
Each line is one published result; not all experiments were run side by side. ± gives the spread as reported.
B1: sequence looked up; chain QEPTDTPVSHDDTIVVTAAEQNLQAPGVSTITADEIRKNPVARDVSKIIRTMPGVNLTGNSTSGQRGNNRQIDIRGMGPENTLILIDGKPVSSRNSVRQGWRGERDTRGDTSWVPPEMIERIEVLRGPAAARYGNGAAGGVVNIITKKGSGEWHGSWDAYFNAPEHKEEGATKRTNFSLTGPLGDEFSFRLYGNLDKTQADAWDINQGHQSARAGTYATTLPAGREGVINKDINGVVRWDFAPLQSLELEAGYSRQGNLYAGDTQNTNSDSYTRSKYGDETNRLYRQNYALTWNGGWDNGVTTSNWVQYEHTRNSRIPEGLAGGTEGKFNEKATQDFVDIDLDDVMLHSEVNLPIDFLVNQTLTLGTEWNQQRMKDLSSNTQALTGTNTGGAIDGVSTTDRSPYSKAEIFSLFAENNMELTDSTIVTPGLRFDHHSIVGNNWSPALNISQGLGDDFTLKMGIARAYKAPSLYQTNPNYILYSKGQGCYACAGGCYLQGNDDLKAETSINKEIGLEFKRDGWLAGVTWFRNDYRNKIEAGYVAVGQNAVGTDLYQWDNVPKAVVEGLEGSLNVPVSETVMWTNNITYMLKSENKTTGDRLSIIPEYTLNSTLSWQAREDLSMQTTFTWYGKQQPKKYNYKGQPAVGPETKEISPYSIVGLSATWDVTKNVSLTGGVDNLFDKRLWRAGNAQTTGDLAGANYIAGAGAYTYNEPGRTWYMSVNTHF
Sequence of UniProt P43681 (whole entry, looked up): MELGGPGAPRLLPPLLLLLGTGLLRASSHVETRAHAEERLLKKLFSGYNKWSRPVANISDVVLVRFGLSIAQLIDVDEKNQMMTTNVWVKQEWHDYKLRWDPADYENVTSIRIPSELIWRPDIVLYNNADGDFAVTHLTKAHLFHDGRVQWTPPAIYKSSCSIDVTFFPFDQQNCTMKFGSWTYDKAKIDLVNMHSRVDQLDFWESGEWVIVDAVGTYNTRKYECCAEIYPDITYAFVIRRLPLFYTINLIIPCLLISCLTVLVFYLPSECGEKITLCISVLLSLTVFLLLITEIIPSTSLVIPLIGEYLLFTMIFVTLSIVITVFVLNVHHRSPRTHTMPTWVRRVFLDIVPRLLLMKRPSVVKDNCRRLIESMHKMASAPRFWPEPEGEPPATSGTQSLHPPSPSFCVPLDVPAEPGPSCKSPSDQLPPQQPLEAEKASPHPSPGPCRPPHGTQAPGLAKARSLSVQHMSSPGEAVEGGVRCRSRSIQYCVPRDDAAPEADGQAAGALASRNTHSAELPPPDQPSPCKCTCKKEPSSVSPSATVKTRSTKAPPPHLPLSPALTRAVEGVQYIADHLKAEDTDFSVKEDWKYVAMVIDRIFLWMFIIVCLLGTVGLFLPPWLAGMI
Sequence of UniProt P41143 (whole entry, looked up): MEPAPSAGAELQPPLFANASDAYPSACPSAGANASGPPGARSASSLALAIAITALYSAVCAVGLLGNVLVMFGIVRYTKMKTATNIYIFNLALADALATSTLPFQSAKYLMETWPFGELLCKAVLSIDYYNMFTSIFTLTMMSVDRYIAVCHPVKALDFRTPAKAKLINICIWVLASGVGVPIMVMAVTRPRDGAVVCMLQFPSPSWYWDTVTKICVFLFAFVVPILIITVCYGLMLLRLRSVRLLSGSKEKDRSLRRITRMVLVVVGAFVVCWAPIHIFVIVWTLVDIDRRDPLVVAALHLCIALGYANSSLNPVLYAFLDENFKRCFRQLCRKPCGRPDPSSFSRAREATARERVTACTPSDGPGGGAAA
Sequence of UniProt P9WI71 (whole entry, looked up): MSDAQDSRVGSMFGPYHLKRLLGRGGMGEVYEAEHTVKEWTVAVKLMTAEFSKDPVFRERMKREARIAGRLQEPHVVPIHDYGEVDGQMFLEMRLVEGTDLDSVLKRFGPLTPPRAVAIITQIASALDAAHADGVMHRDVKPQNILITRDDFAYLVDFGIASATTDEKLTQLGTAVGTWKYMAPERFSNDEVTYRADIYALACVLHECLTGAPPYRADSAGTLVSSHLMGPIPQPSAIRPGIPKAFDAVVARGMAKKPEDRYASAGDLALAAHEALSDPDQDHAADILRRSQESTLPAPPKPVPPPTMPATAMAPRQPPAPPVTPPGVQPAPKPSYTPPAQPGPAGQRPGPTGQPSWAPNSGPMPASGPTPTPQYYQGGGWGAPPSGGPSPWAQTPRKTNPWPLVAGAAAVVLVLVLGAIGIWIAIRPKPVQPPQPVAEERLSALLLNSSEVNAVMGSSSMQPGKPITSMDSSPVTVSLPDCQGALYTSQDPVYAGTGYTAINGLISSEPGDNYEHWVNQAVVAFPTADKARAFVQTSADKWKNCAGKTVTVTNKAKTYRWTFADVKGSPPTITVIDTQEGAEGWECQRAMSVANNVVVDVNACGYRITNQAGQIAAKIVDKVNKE
Sequence of UniProt Q8IIJ9 (whole entry, looked up): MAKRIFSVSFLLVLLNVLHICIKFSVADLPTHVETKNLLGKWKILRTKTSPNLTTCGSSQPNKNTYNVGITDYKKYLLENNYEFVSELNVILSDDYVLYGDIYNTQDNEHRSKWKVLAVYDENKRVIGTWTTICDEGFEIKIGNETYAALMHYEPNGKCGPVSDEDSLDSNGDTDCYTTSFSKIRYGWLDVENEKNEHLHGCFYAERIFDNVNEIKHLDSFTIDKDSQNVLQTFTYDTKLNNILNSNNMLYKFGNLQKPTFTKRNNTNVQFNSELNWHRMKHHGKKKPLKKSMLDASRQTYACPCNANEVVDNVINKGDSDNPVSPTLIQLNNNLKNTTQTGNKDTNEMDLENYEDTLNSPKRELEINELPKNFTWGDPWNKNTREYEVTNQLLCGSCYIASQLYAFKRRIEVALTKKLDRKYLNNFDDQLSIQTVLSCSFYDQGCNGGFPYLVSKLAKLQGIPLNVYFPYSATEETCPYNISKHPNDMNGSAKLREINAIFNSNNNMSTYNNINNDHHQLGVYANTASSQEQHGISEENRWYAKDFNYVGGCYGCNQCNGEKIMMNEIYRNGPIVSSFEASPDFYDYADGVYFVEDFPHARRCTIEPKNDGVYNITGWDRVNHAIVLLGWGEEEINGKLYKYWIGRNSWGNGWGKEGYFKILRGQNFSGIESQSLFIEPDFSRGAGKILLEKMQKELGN
Sequence of UniProt P17787 (whole entry, looked up): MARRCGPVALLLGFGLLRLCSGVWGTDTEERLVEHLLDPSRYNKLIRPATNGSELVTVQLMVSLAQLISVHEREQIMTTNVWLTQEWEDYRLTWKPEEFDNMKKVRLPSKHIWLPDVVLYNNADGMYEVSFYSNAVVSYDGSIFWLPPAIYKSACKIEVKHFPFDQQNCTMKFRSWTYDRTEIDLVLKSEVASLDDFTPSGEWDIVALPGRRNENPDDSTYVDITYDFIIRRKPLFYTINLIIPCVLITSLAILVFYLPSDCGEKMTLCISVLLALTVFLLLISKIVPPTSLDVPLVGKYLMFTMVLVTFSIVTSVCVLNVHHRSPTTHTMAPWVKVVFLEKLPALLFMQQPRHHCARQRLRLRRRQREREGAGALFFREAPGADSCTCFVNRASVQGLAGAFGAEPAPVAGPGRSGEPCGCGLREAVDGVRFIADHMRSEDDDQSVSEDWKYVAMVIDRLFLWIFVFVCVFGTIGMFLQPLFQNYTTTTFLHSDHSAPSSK
Sequence of UniProt Q7RTT9 (whole entry, unmodified, looked up): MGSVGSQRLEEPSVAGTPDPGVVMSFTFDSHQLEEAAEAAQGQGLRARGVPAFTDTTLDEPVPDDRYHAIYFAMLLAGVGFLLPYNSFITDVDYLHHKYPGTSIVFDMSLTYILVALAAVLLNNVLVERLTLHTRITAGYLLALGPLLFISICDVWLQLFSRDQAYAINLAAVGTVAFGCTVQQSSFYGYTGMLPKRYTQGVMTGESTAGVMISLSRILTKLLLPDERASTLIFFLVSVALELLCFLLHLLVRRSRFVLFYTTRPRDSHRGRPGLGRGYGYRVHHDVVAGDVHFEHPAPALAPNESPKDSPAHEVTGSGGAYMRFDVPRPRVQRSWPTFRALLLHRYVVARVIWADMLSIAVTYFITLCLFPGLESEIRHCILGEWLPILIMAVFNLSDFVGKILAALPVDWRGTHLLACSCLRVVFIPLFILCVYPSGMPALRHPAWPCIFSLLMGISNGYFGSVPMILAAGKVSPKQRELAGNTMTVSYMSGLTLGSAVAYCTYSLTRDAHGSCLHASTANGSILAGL
Sequence of UniProt P07711 (whole entry, looked up): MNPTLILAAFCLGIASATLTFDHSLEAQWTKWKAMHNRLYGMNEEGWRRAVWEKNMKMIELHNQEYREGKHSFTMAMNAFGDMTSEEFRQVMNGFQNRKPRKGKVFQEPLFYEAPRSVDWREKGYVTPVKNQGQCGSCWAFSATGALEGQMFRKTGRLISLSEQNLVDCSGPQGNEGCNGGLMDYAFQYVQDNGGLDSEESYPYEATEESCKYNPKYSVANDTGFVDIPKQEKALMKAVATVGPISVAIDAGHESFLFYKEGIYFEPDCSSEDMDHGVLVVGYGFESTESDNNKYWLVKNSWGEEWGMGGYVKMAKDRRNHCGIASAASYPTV

Substance | tested on | test | system | setting | scale | measurement | result
B1 | – | loop conformational motion, stopped-flow fluorescence | outer membrane fragments | fluorescein-labelled, first decay phase, together with: ferric enterobactin 200 nM | – | quenching rate constant | 2.32 s⁻¹
Nc1nc2c(ncn2[C@@H]2O[C@H](COP(=O)(O)OP(O)(O)=S)[C@@H](O)[C@H]2O)c(=O)[nH]1 | Saccharomyces cerevisiae | vacuole fusion, inhibitor, in vitro vacuole fusion | – | 0.5 mM, 120 min, 25 °C | – | inhibition | 27%
Nc1ncnc2c1ncn2[C@@H]1O[C@H](COP(=O)(O)OP(=O)(O)OP(O)(O)=S)[C@@H](O)[C@H]1O | pknH (Mycobacterium tuberculosis, UniProt P9WI71) | ATP probe labelling, competitor, chemoproteomics | Mycobacterium tuberculosis, lysate | 500 µM | relative to: untreated | fold change | 11.3 fold
CC1=C(C)C(=O)C(C)=C(C)C1=O | Reaction center protein M chain, QA site (pufM, Cereibacter sphaeroides, UniProt P0C0Y9) | P+QA- formation, flash absorbance at 605 nm | Cereibacter sphaeroides, QA-depleted reaction centers | pH 8.0, 22 °C, oxidized neutral quinone at QA site | – | binding free energy | -8.57 kcal/mol
O=C(CN1CCN(S(=O)(=O)c2ccccc2F)CC1)Nc1ccccc1F | Neuronal acetylcholine receptor; alpha4/beta2 (Homo sapiens, UniProt P17787+P43681) | inhibitor, calcium accumulation | HEK tsA201 cells | – | – | Hill coefficient | -1.5
C#CCCCCOC1=CC(=O)N(C(=O)/C=C/[C@H](C)NC(=O)[C@H](CC(C)C)NC(=O)[C@H](CC(C)C)OC(=O)[C@H]([C@@H](C)CC)N(C)C)C1C (stereo in doubt) | Procathepsin L (CTSL, Homo sapiens, UniProt P07711) | inhibitor | – | – | – | kinact/KI | 3.6e+06 ± 283000 M⁻¹ s⁻¹
C[n+]1ccc(-c2ccccc2)cc1 | SLC29A4 (Homo sapiens, UniProt Q7RTT9, I89M) | uptake, substrate | MDCK expressing YFP-PMAT I89M | 1 min, 37 °C | – | Km | 60.1 ± 23.3 µM
CCCCC/C=C\C/C=C\C/C=C\C/C=C\CCCC(=O)NCCO | – | uptake, substrate | human healthy brain synaptosomes | 15 min, specific uptake, 37 minus 4 °C | – | Km | 0.802 ± 0.15 µM
C=CC(=O)Nc1cc2c(Nc3ccc(F)c(Cl)c3)ncnc2cc1C#CC(C)(C)N1CCN(C)CC1 | NIH3T3 in PANC/NIH microtissues | fibroblast toxicity | – | chronic toxicity, unit not given | relative to: AC50 ATP over AC50 NanoLUC, day 7 | therapeutic window | 2.34
C[C@@H]1C[C@H]2O[C@@H]2/C=C\C=C\C(=O)Cc2c(Cl)c(O)cc(O)c2C(=O)O1 | OPRD1 (Homo sapiens, UniProt P41143) | ligand displacement, radioligand | – | 10 µM, cell membranes | – | inhibition | -27.8%
Nc1ncnc2c1ncn2[C@@H]1O[C@H](COP(=O)(O)OP(=O)(O)O)[C@@H](O)[C@H]1O | – | – | mouse tissue mitochondria | concentration 12.5 to 25 µM, together with: glutamate and succinate | – | ATP production increase | ~43%
CN1C(=CC=CC=CC2=[N+](CCCCCC(=O)NCCCC[C@H](NC(=O)[C@H](CCCCNC(=O)COCCOCCOCCNC(=O)[C@H](Cc3ccccc3)NC(=O)[C@H](CCCNC(=N)N)NC(=O)[C@@H]3CCCN3C(=O)[C@H](CC(N)=O)NC(=O)[C@@H]3CCCN3C(=O)[C@H](CO)NC(=O)[C@@H](N)CCCCN)NC(=O)COCCOCCOCCNC(=O)[C@H](CCC(=O)O)NC(=O)[C@H](CCCNC(=N)N)NC(=O)[C@@H]3CCCN3C(=O)[C@H](CCCCN)NC(=O)[C@H](Cc3c[nH]cn3)NC(=O)[C@H](CCCNC(=N)N)NC(=O)[C@@H](N)CCC(N)=O)C(N)=O)c3ccc4ccccc4c3C2(C)C)C(C)(C)c2c1ccc1ccccc21 | – | Barrett's neoplasia detection, confocal microscopy | human esophageal biopsies | 0.5 µM, T/B ratio cutoff 5.9 | – | sensitivity | 88%
CCCCC(C(=O)COC(=O)c1c(C)cccc1C)n1cc(C2(N)CCCCC2)nn1 (stereo not shown) | DPAP1 (Plasmodium falciparum, UniProt Q8IIJ9) | inhibitor | parasite lysate | together with: (Pro-Arg)2-rhodamine substrate | – | second-order inactivation rate constant | 34 M⁻¹ s⁻¹
CC1=C(C(=O)Nc2cc3cn[nH]c3cc2F)C(c2ccc(Cl)cc2F)N=C(c2ccnc(Cl)c2)N1 (stereo not shown) | NIH3T3 in PANC/NIH microtissues | fibroblast toxicity | – | chronic toxicity, unit not given | relative to: AC50 ATP over AC50 NanoLUC, day 7 | therapeutic window | 2.47
CCOCc1nc2c([nH]1)c(N)nc1ccccc12 | human monocyte-derived mononuclear phagocytes | fluorogenic substrate | – | concentration not given, 2 days, together with: TLR ligand maturation | – | proteasome activity | increased
CC[C@H](C)[C@@H]1NC(=O)[C@H](CCCNC(=N)N)NC(=O)[C@H](CC(=O)O)NC(=O)[C@H](CC(C)C)NC(=O)[C@H](CCCCN)NC(=O)[C@H](CC(C)C)NC(=O)CNC(=O)[C@H](Cc2ccccc2)NC(=O)[C@@H](NC(=O)CNC(=O)[C@H](CCCCN)NC(=O)[C@H](CO)NC(=O)[C@H](CC(C)C)NC(=O)CNC(=O)[C@H](CCCCN)NC(=O)[C@H](CCCCN)NC(=O)[C@H](CC(N)=O)NC(=O)[C@H](C)NC(=O)CNC(=O)[C@H](CCCCN)NC(=O)[C@H](Cc2ccc(O)cc2)NC(=O)[C@H](CCCCN)NC(=O)[C@H](CCCNC(=N)N)NC(=O)[C@H](C)NC(=O)[C@H](CC(N)=O)NC(=O)[C@@H]2CCCN2C(=O)[C@H](Cc2c[nH]cn2)NC(=O)[C@H](CCC(=O)O)NC(=O)[C@H](CCC(N)=O)NC(=O)CNC(=O)[C@@H]2CCCN2)CSSC[C@@H](C(=O)O)NC(=O)CNC(=O)[C@H](CC(C)C)NC(=O)CNC(=O)[C@H](CO)NC(=O)[C@H](CCSC)NC(=O)[C@H](CO)NC(=O)CNC1=O | – | refers to: urine cGMP/creatinine | human patients with achondroplasia, urine | initial 6 months, sigmoid Emax vs AUC(0-t) | – | Emax | 11800 pmol/mg creatinine
